# Assay results collected from several papers.
# Parts stem from different laboratories: compare values within a part only. Changes are numbered by the printed parent chain.

# Set 1 — technique: EMSA with sequencing; form: double-stranded DNA, one strand shown; medium: in vitro; concentration: 10 and 20 nM; baseline: negative control set to 0; direction: higher = stronger binding
# Target: Hepatocyte nuclear factor 3-alpha (Foxa1, Mus musculus, UniProt P35582, residues 1-468, full length assumed)
# Notes: whole designed probe, mean of two concentrations, ends assumed
# Target sequence (chain): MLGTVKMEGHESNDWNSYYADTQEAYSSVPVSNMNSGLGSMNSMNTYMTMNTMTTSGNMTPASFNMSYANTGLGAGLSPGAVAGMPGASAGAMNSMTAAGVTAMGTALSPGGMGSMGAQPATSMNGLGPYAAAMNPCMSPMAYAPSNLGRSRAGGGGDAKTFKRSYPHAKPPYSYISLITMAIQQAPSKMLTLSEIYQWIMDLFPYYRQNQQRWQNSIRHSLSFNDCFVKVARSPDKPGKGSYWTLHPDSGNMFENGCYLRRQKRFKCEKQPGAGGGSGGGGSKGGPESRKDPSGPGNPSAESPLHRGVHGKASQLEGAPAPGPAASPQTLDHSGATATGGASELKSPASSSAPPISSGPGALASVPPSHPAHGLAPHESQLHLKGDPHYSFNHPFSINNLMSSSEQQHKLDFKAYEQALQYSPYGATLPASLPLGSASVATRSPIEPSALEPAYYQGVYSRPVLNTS
Sequence,normalised bound fraction [ratio]
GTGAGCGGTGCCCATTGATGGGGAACATCTTACCCTTGCTGGGAGTAAACAAAGTTATAAACAGTTGTTTTAAAAAAATAGTTGGTTTCAGATGAAAAATTTCTGTATTCAATTTGTCTAGAGTACCTAGAATGCCACGGTAGCACTTCTCCCCCAGGGAAATATGTTGGACATTTCTGTTTCAGTGTACCGCCTGTCACTAATGCCATGGAAACCCAGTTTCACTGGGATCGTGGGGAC,0.117
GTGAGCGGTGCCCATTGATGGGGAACTTTGCTCCCCACACCCATTGCCTGCCACAAAAGGGTATTTTGCCAACTTCAGTATGTAAACATTTAGGGATATAGATGACGTGATCACATGTCTGTTTACATAGTTAATAATTTACGCATACACATTTAAACTTACTCATATAAAGTCATACACAATTTAGAATCATTACTTTTTGCTATTCTTACATTTCAGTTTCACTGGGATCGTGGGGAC,0.509
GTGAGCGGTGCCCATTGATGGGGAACGCTTACAGTTTCTCAGGGGCCTGGCACTTTGCTCTGTTGTCCCAGTGACTCACATGATAATTTTCCAGGCCTTCAAACTAGGTCAACAGCTTTGTTTGCCCAGAGAGCTCCCCTGGGAGGCCATTCTAAGGAAAGCAGACTGAAAGGGGATGTTTGGCCAGGTGATTCTTTTTGCTGGCTTTTAGCCTGAGGATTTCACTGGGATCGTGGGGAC,0.182
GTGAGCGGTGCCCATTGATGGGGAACCTCTAAAGGAAGGCTAACTAGTTCACAGAGCCAAGGAATCCAATTTCAGAAACGCAGATAGGCAGAGTGGGTAAACAAAGCTGCACTGTAACTGTTTACTTTTCTTGCCAATTATTTGCCTAGCTGCTTCTCTCCATTCTCCAAGATCCAAAAGTGCAATTCACTGAACTATCAGTGTGGCAGCAAAATACCTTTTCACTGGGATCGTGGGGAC,0.482
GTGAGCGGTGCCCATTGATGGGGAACACGGTGTTTGCAGAGTGACTGTTCCCCTGGGGGACCCTAGGCTTGTCCTCGCGTTACCTTTGTCCCATCAGTTGCTGCTCTGGCTGGGGAAGTTGTTTACATTGGCTGCTGTGTGCTGCTGCTAGGAATTTTGAGGAGTGTGCACTTTTTTTTTTTTTTTTTTGCTGTTGTTGAGGCGGAGTCTCGCTCTGTCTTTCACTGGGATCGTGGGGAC,0.437
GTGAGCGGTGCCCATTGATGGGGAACTGTGTGTGCGCGCGCGTGTGTGTGTGTTTTCTTAAGCCGGGCTATTCAAACCCTGCTGCAATTCTCCGGTAAACAATGATTCATGGGGCATAATGCAAATAAACGGATTGCAAACGGCGCGGTTCGCGCACTTTGCAGCCGGCCCGGTGGAGCAGCCAGTGCCGGATTTCTCCCTTTTTTTGCAGATCTGCAGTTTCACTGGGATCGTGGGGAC,0.435
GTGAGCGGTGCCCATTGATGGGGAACCATTAGAGTCAAAGTTGTTAAGGGGAGCTAGTCATAGCTACCACGTGGCCAGGCATGTGGAACCAGACACCAGGCACACATCATGTAACATCATATTTACTTTAAATAATGCTGACAACCATGAATCATCAGACACACTACTTGAGATATATAGAATAACATTATTACCCAGTAAGTATGTGAACATTCCGATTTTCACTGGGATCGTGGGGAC,0.314
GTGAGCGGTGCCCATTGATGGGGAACATAGTGCAGAACCAGAAGGGTTGCCTAAAATGTACTAAAATAGAATTAATAAAATTAACATAACTCTTTAGAAATATTATACTTCAAGTCCAAAATTACTTAGGGAGCATTATAAATTCCCTTATATAATTTCATCCATTGAATTACAAAAGACACGACAAAGGAGCTAATGGATATGAAAATTACATTAACATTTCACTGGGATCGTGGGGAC,-0.0534

# Set 2 — target: CCND3, cyclin fold, Cln2 fusion (human); technique: yeast growth competition, sequencing; medium: yeast; notes: weak parent motif; baseline: not given; direction: higher = stronger binding
# Starting sequence: viral docking peptide; YKVKRRLVFGADD; partner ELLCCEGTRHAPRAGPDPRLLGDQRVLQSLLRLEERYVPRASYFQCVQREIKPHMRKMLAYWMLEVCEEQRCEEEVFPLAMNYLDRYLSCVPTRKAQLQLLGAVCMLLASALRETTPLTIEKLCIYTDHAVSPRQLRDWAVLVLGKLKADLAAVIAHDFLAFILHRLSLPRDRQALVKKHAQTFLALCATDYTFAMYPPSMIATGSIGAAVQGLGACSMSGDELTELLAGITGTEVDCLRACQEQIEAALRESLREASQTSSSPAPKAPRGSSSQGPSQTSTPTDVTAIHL
Variant,normalised enrichment score
A11D,0.977
F9E,0.3
G10A,0.126
K4F,0.203
V3Y,0.319
L7A,0.144
R6H,-0.0533
G10V,0.208
K2V,0.148
V3C,0.281
F9V,0.0233
R6I,0.159
L7V,0.2
R5C,-0.227
D12H,-0.043
R6Y,0.365
V3T,0.25
V8C,0.337
V8H,0.315
V8I,0.00794

# Set 3 — target: CEBPD, bZIP domain (human); technique: DHFR protein complementation; medium: yeast; baseline: wild-type JUN-FOS pair; direction: higher = stronger binding
# Notes: single substitutions, most at no-binding floor
# Starting sequence: JUN, bZIP domain (human); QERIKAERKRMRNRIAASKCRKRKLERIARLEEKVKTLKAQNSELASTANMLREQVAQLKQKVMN; partner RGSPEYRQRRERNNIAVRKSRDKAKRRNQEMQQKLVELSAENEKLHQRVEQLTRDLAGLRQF
Variant,binding fitness [natural log]
M51H,-1.44
A57G,-1.34
N42I,-1.41
V35W,-1.35
L31H,-1.07
R30S,-1.22
K39A,-1.26
A29D,-1.34

# Set 4 — technique: protein-binding microarray; form: hairpin DNA; medium: in vitro; concentration: not given; baseline: not given; direction: higher = stronger binding; shared flanks, not repeated: GAGGCCG … CGGCCTCACACTC
# Target: Cyclic AMP-responsive element-binding protein 1, full length (CREB1, Homo sapiens, UniProt P16220, residues 1-327)
# Sequence of UniProt P16220 (whole entry, looked up): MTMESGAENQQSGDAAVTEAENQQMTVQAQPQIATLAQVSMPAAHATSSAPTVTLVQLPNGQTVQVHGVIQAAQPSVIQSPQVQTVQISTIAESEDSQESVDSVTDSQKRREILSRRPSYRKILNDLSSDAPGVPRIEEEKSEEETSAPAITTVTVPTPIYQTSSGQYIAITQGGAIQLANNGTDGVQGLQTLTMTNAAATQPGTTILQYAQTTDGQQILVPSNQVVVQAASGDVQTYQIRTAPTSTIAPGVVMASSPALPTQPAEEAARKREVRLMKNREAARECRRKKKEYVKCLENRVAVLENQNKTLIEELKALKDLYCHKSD
# Notes: whole hairpin DNA, median over replicate spots
Sequence,median fluorescence
GCCGACGTCAGCCTCCTGGCTGACGTCGGC,5040 a.u.
GATGACGTCGGCCTCCTGGCCGACGTCATC,10100 a.u.
ACGACCGCGTGCCTCCTGGCACGCGGTCGT (5mC at 9 15 29 31 35),2870 a.u.
ACCGCGTCGTGCCTCCTGGCACGACGCGGT (5mC at 9 15 29 34),4410 a.u.
ACGCGGTCGTGCCTCCTGGCACGACCGCGT (5mC at 9 11 15 29 33 35),2790 a.u.
ACGACATCGTGCCTCCTGGCACGATGTCGT (5mC at 9 15 29 35),2940 a.u.
ACGACGGCGTGCCTCCTGGCACGCCGTCGT (5mC at 9 15 29 31 35),3190 a.u.
ACCACGTCGTGCCTCCTGGCACGACGTGGT (5mC at 9 10 15 29),4210 a.u.

# Further values, each from its own experiment
Molecule,partner,technique,medium,with,measurement,result
"NDUFB4 (Homo sapiens, UniProt O95168)","UQCR10 (Homo sapiens, UniProt Q9UDW1)",cross-linking MS,cells,BSPNO,cross-linked residues,K7 to A2
